Experimental data gathered from unrelated publications.
Each line is one published result; not all experiments were run side by side. Numbers after ± are the reported error.
CHRM5: Muscarinic acetylcholine receptor M5 (CHRM5, Homo sapiens, UniProt P08912)
Sequence of UniProt P08912 (whole entry, looked up): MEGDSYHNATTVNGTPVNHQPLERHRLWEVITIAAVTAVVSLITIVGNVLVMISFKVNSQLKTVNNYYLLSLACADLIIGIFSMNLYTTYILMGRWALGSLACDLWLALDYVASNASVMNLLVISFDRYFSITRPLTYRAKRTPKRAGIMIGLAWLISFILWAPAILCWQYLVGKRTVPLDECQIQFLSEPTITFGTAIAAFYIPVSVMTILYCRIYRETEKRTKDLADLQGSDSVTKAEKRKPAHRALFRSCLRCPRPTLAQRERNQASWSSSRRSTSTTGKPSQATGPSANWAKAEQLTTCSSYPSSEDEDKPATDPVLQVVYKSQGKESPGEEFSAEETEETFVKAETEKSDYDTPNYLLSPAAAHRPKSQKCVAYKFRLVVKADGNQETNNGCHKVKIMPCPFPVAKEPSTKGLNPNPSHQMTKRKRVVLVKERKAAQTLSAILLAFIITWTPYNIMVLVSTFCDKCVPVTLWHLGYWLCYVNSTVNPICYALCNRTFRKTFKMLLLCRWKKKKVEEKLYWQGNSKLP
NTSR1: Neurotensin receptor type 1 (NTSR1, Homo sapiens, UniProt P30989)
Sequence of UniProt P30989 (whole entry, looked up): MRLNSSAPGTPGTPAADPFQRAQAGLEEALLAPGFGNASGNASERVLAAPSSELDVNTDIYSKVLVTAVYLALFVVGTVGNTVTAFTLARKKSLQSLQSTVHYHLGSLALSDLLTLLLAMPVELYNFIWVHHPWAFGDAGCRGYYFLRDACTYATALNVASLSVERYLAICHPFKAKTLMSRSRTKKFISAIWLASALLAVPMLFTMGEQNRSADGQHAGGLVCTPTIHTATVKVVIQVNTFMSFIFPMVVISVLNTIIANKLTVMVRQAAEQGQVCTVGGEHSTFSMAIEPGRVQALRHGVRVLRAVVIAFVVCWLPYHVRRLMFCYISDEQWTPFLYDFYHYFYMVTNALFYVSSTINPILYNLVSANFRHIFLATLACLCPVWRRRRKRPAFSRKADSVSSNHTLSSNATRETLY
Sequence of UniProt O09047 (whole entry, looked up): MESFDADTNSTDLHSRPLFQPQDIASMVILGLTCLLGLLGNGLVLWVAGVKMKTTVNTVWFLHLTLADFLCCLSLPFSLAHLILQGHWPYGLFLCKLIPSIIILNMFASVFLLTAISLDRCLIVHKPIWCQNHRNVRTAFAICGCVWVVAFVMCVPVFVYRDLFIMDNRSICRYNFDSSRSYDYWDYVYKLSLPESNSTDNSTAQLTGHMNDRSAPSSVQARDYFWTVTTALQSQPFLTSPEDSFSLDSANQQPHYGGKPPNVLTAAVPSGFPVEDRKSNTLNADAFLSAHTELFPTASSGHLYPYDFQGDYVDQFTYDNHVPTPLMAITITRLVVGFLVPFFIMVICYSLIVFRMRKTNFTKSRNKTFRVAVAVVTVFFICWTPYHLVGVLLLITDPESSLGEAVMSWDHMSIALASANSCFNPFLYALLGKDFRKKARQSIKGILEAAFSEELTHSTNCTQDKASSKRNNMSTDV
Sequence of UniProt Q0P543 (whole entry, looked up): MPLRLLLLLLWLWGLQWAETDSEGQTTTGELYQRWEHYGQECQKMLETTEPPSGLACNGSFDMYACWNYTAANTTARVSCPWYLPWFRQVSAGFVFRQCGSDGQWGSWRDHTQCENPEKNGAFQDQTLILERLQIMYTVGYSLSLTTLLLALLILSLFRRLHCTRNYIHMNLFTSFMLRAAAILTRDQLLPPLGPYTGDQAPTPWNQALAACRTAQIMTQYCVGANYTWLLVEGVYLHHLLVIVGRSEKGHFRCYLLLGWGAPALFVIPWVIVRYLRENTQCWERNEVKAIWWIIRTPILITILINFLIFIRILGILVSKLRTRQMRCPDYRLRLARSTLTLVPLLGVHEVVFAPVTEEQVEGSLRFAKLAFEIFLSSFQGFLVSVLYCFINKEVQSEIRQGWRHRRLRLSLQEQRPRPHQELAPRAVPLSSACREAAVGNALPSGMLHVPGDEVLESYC
Sequence of UniProt Q9NSD7 (whole entry, unmodified, looked up): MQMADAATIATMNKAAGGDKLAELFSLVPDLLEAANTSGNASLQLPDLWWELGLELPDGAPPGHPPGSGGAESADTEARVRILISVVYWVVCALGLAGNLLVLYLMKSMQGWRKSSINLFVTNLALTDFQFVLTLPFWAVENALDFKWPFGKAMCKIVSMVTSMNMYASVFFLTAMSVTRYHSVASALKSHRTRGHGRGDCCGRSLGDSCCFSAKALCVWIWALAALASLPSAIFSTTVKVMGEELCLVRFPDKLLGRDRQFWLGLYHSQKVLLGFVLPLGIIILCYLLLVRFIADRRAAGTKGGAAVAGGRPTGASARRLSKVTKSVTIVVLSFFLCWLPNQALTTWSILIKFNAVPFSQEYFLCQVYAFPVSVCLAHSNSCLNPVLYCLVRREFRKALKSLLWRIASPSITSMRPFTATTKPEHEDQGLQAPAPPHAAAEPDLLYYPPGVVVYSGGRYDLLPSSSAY
Sequence of UniProt Q969F8 (whole entry, unmodified, looked up): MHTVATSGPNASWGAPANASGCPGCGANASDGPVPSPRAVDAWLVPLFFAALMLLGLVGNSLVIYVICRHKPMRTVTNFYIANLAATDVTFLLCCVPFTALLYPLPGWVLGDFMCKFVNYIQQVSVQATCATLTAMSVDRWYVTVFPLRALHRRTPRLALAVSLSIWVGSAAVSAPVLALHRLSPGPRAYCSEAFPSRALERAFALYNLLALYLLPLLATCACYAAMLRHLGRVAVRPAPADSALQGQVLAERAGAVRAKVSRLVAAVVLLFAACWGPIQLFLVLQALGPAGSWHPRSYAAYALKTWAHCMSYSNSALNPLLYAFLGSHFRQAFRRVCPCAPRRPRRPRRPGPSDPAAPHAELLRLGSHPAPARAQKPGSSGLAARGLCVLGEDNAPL
Sequence of UniProt Q9UKP6 (whole entry, looked up): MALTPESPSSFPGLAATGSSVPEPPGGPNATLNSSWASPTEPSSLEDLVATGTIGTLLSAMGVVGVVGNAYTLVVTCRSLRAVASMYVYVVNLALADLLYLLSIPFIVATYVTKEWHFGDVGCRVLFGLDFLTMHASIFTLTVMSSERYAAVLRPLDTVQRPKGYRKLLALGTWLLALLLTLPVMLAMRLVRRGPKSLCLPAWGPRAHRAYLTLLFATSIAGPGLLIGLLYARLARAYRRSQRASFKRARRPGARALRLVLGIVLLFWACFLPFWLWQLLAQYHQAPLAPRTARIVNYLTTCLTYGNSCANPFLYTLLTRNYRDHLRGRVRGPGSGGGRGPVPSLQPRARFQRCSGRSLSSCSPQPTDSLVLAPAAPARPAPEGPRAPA

`CC(C)C[C@H](NC(=O)[C@H](C)NC(=O)[C@H](CO)NC(=O)[C@@H]1CCCN1C(=O)[C@@H]1CCCN1C(=O)[C@H](CCC(N)=O)NC(=O)[C@H](CC(C)C)NC(=O)[C@@H](N)[C@@H](C)O)C(=O)N[C@@H](CCCNC(=N)N)C(=O)N[C@@H](CCCNC(=N)N)C(=O)N[C@@H](CCCNC(=N)N)C(=O)N[C@@H](Cc1c[nH]cn1)C(=O)N[C@@H](Cc1ccc(O)cc1)C(=O)N[C@@H](Cc1c[nH]cn1)C(=O)N[C@@H](Cc1c[nH]cn1)C(=O)N[C@@H](C)C(=O)N[C@@H](CC(C)C)C(=O)N1CCC[C@H]1C(=O)N1CCC[C@H]1C(=O)N[C@@H](CO)C(=O)N[C@@H](CCCNC(=N)N)C(=O)O` gave an Emax of 61.2 ± 2.17% (C3a anaphylatoxin chemotactic receptor (C3ar1, Mus musculus, UniProt O09047); cAMP response, agonist, GloSensor; relative to: TLQP-21).
With `CC[C@H](C)[C@H](NC(=O)[C@H](CO)NC(=O)[C@H](Cc1ccc(O)cc1)NC(=O)[C@H](CC(=O)O)NC(=O)[C@H](CO)NC(=O)[C@@H](NC(=O)[C@H](Cc1ccccc1)NC(=O)[C@@H](NC(=O)CNC(=O)[C@H](CCC(=O)O)NC(=O)[C@H](C)NC(=O)[C@@H](N)Cc1ccc(O)cc1)[C@@H](C)O)[C@@H](C)CC)C(=O)N[C@@H](C)C(=O)N[C@@H](CCSC)C(=O)N[C@@H](CC(=O)O)C(=O)N[C@@H](CCCCN)C(=O)N[C@H](C(=O)N[C@@H](Cc1c[nH]cn1)C(=O)N[C@@H](CCC(N)=O)C(=O)N[C@@H](CCC(N)=O)C(=O)N[C@@H](CC(=O)O)C(=O)N[C@@H](Cc1ccccc1)C(=O)N[C@H](C(=O)N[C@@H](CC(N)=O)C(=O)N[C@@H](Cc1c[nH]c2ccccc12)C(=O)N[C@@H](CC(C)C)C(=O)N[C@@H](CC(C)C)C(=O)N[C@@H](C)C(=O)N[C@@H](CCC(N)=O)C(=O)N[C@@H](CCCCN)C(=O)NCC(=O)N[C@@H](CCCCN)C(=O)N[C@@H](CCCCN)C(=O)N[C@@H](CC(N)=O)C(=O)N[C@@H](CC(=O)O)C(=O)N[C@@H](Cc1c[nH]c2ccccc12)C(=O)N[C@@H](CCCCN)C(=O)N[C@@H](Cc1c[nH]cn1)C(=O)N[C@@H](CC(N)=O)C(=O)N[C@H](C(=O)N[C@H](C(=O)N[C@@H](CCC(N)=O)C(N)=O)[C@@H](C)O)[C@@H](C)CC)C(C)C)[C@@H](C)CC` the Emax was 99% (Gastric inhibitory polypeptide receptor (Mus musculus, UniProt Q0P543); cAMP, agonist; HEK293).
`C=CC(=O)Nc1cccc(Cn2ncc3cnc(Nc4cnn(CCOC)c4)nc32)c1` — result for “percent of control”: 100% (MYO3A human; binding, KINOMEscan; 100 nM; lower = stronger binding).
`CNC(=N)NCCC[C@H](NC(=O)[C@H](CC(C)C)NC(=O)NNC(=O)[C@H](Cc1ccccc1)NC(=O)[C@@H](NC(=O)[C@H](CC(N)=O)NC(=O)[C@@H]1C[C@@H](O)CN1C(=O)[C@@H](Cc1ccc(O)cc1)NC(C)=O)[C@@H](C)O)C(=O)N[C@@H](Cc1c[nH]c2ccccc12)C(N)=O` has an Emax of 73.1% (KiSS-1 receptor (KISS1R, Homo sapiens, UniProt Q969F8, Y313A); inositol phosphate, agonist; HEK293).
With `Nc1ncc(-c2cc(-c3cnn(CC(F)(F)F)c3)ncc2F)nc1C(=O)NC1CNCC(F)C1` (stereo not drawn) the remaining binding was 85% (TESK1; KINOMEscan; 1 µM; relative to: DMSO control).
Under “log2 fold change”, `COC1CN([C@H]2CC[C@H]([C@@]3(C)Oc4c(Cl)cc(C(=O)NCc5c(SC)cc(C)[nH]c5=O)c(C)c4O3)CC2)C1` is recorded as 2.85 (RNA-seq, refers to: ARNT2 mouse homolog; mouse, HT-1376 xenograft, whole blood; dose not given; relative to: vehicle).
With `CCCCCCOc1ccc(C(=O)OCCN2CC=CCC2)cc1` the Emax was 1.43 ± 0.06 fold (CHRM5; membranes; 100 µM, 15 h, together with: carbachol; relative to: control).
The IC50 of `CNS(=O)(=O)Nc1nccc(Cc2c(C)c3ccc(Oc4ncccc4F)cc3oc2=O)c1F` is reported as 342 nM (PE/CA-PJ34; cell viability, CellTiter-Glo; 7 days).
`C=CCn1c(=O)c2ccccc2n2c(SC3CCOC3=O)nnc12` (stereo not drawn) has an Emax of 119 ± 10% (CHRM5; receptor activation, agonist; concentration not given, 16 h).
With `CCCCOc1ccc(C(=O)OCCN2CC=CCC2)cc1` the Emax was 1.64 ± 0.06 fold (CHRM5; membranes; 10 µM, 15 h, together with: carbachol; relative to: control).
Under “log2 fold change”, `Cc1ncsc1-c1ccc(C(C)NC(=O)C2CC(O)CN2C(=O)C(NC(=O)CCCCCCCCCCN2CCCC(Nc3ncc(Cl)c(Nc4ccccc4S(=O)(=O)C(C)C)n3)C2)C(C)(C)C)cc1` (stereo not drawn) is recorded as -1.89 (22Rv1; RNA-seq, refers to: ZNF502 mRNA; concentration not given; relative to: DMSO).
The Emax of `COc1ccccc1C1CCN(c2nc(C3(F)CC3)nc3cnc(N(C)CCO)cc23)CC1` is reported as 95.4% (NTSR1; β-arrestin recruitment, agonist; HEK-293T).
`CC[C@H](C)[C@@H]1NC(=O)[C@H](Cc2ccccc2)NC(=O)[C@H](CCC(=O)O)NC(=O)[C@H](CCCNC(=N)N)NC(=O)CNC(=O)[C@@H](NC(=O)[C@H](CC(C)C)NC(=O)[C@H](CCCNC(=N)N)NC(=O)[C@@H](NC(=O)CNC(=O)[C@H](Cc2ccc(O)cc2)NC(=O)[C@@H]2CCCN2C(=O)[C@H](C)NC(=O)[C@H](C)NC(=O)[C@@H](N)CCCNC(=N)N)C(C)C)CSSC[C@@H]2NC(=O)[C@@H](NC(=O)[C@H](CO)NC(=O)[C@H](CO)NC(=O)[C@H](CO)NC(=O)[C@H](CC(C)C)NC(=O)CNC(=O)[C@H](C)NC(=O)[C@H](CC(C)C)NC(=O)[C@@H](NC(=O)[C@@H](N)CC(=O)O)C(C)C)CSSC[C@H](NC(=O)CNC(=O)[C@H](Cc3c[nH]c4ccccc34)NC(=O)[C@H](CCCCN)NC2=O)C(=O)N[C@@H](CO)C(=O)N[C@@H](CCCCN)C(=O)N[C@@H](CO)C(=O)N[C@@H](CCC(=O)O)C(=O)N[C@@H]([C@@H](C)CC)C(=O)N[C@@H](CO)C(=O)N[C@@H](CO)C(=O)N[C@@H](CC(C)C)C(=O)N[C@H](C(=O)O)CSSC[C@@H](C(=O)NCC(=O)NCC(=O)N[C@@H](CO)C(=O)N[C@@H](CCCNC(=N)N)C(=O)N[C@@H](Cc2c[nH]c3ccccc23)C(=O)O)NC(=O)[C@H]([C@@H](C)O)NC(=O)[C@H](Cc2ccccc2)NC(=O)[C@H]([C@@H](C)CC)NC(=O)[C@H](C(C)C)NC(=O)[C@H](C)NC(=O)[C@H](CCCNC(=N)N)NC1=O` has an Emax of 66.7 ± 3.79% (Relaxin-3 receptor 1 (RXFP3, Homo sapiens, UniProt Q9NSD7, H268A); HEK-293T; relative to: wild type).
With `COc1ccccc1C1CCN(c2nc(C3CC3)nc3ccc(N(C)CCO)cc23)CC1` the Emax was 113% (NTSR1; β-arrestin recruitment, agonist; HEK-293T).
With `CC(C)[C@H](NC(=O)[C@@H]1CSSC(C)(C)[C@H](NC(=O)[C@@H](N)CC(=O)O)C(=O)N[C@@H](Cc2ccccc2)C(=O)N[C@H](Cc2c[nH]c3ccccc23)C(=O)N[C@@H](CCCN)C(=O)N[C@@H](Cc2ccc(O)cc2)C(=O)N1)C(=O)O` the Emax was 22.2% (Urotensin-2 receptor (UTS2R, Homo sapiens, UniProt Q9UKP6); β-arrestin recruitment, agonist, BRET; HEK293).

Repeated from above:
`C=CC(=O)Nc1cccc(Cn2ncc3cnc(Nc4cnn(CCOC)c4)nc32)c1` — result for “percent of control”: 100% (MYO3A human; binding, KINOMEscan; 100 nM; lower = stronger binding).
`CNC(=N)NCCC[C@H](NC(=O)[C@H](CC(C)C)NC(=O)NNC(=O)[C@H](Cc1ccccc1)NC(=O)[C@@H](NC(=O)[C@H](CC(N)=O)NC(=O)[C@@H]1C[C@@H](O)CN1C(=O)[C@@H](Cc1ccc(O)cc1)NC(C)=O)[C@@H](C)O)C(=O)N[C@@H](Cc1c[nH]c2ccccc12)C(N)=O` has an Emax of 73.1% (KiSS-1 receptor (KISS1R, Homo sapiens, UniProt Q969F8, Y313A); inositol phosphate, agonist; HEK293).
